Measured values collected from several papers.
Numbered parts are unrelated; each lists some results of a single study.

Sample 1 — technique: RNA Bind-n-Seq; form: RNA; sample: in vitro; concentration: 200 nM; notes: whole 134-nt RNA, ends assumed; added: 150 mM LiCl; reference: input library; direction: higher = stronger binding; each molecule: 7-deaza-guanosine replaces G
Target: Ras GTPase-activating protein-binding protein 1, full length (G3BP1, Homo sapiens, UniProt Q13283)
UniProt Q13283, sequence (whole entry, looked up): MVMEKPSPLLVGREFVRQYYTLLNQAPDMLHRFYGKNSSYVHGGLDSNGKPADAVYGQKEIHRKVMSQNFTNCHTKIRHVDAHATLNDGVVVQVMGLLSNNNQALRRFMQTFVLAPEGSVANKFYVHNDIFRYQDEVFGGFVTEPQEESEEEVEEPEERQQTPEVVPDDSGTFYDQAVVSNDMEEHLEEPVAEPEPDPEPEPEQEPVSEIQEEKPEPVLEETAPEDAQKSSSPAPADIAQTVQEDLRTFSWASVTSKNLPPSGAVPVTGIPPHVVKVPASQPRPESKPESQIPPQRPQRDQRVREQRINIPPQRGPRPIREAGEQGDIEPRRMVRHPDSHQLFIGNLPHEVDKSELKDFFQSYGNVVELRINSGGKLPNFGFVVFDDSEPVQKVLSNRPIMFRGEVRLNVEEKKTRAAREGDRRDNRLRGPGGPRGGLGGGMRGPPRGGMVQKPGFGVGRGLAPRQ
Constant ends, left off below: GGGAGUUCUACAGUCCGACGAUC … UGGAAUUCUCGGGUGUCAAGG
Strand | log2 enrichment
UUCCAACAGUUAUGGGAUCCCAGAACCUGCUCAUGCAUACGCUCAACCUCAGACCACAACUCCUCUACCUGCAGUUUCCGGUUCUCCUGG | 1.33
CAAGUCCUGUGCUACACAUCGUAUGUACCGAAUCGGGUUUGGGAAAAAGGGUGGGAAAGUAUUAUGUUACGCCGUUCGGAUCUGCACUUC | -0.604
AGUCCUGUGCUACACAUCGUAUGUACCGAAUCGGAAAAAGGAAAAAGGGAAAAAGGGGAAAGUAUUAUGUUACGCCGUUCGGAUCUGCAC | -0.528
UGGCCCUGGUGGCAUGCGGGGAGGAAGAGGUGGCCUCAUGGAUCGUGGUGGUCCCGGUGGAAUGUUCAGCGGUGGCCGUGGUGGAGACAG | -0.205
CCUCAAGUCCUGUGCUACACAUCGUAUGUACCGAAUCGGUGGUGGGGUGGGGAAAGUAUUAUGUUACGCCGUUCGGAUCUGCACUUCCAG | 0.523
AGUCCUGUGCUACACAUCGUAUGUACCGAAUCGGGGUUUUGGGGUUUUGGGUUUUGGGAAAGUAUUAUGUUACGCCGUUCGGAUCUGCAC | 0.11
GUCCUGUGCUACACAUCGUAUGUACCGAAUCGGGAAAAAGGAAAAAGGGGAAAAAGGGGAAAGUAUUAUGUUACGCCGUUCGGAUCUGCA | 0.0692
CCUGUGCUACACAUCGUAUGUACCGAAUCGGGAAAAAGGGUUUUUUUGGGUUUUUUUGGGAAAGUAUUAUGUUACGCCGUUCGGAUCUGC | -2.09
AAGUCCUGUGCUACACAUCGUAUGUACCGAAUCGGGGUGGGGAAAAAGGGGUGGGGAAAGUAUUAUGUUACGCCGUUCGGAUCUGCACUU | 0.367
ACCAUGCAGGUGGGCAUCUUUGGGAAGUGGGGCAAGGGAAAGAUAGGGAGGGGGGUAACACUUUGGGAACAGGUGGUCCCAGGUCGUUUC | 0.399
GCAGGAAGUAAAAACAAAUGGAAAUGCUUCGGAUAGUGGCAGGGGUGGAGGUUGCUAAGGAAAGGGUGGGAUGGGAGUGGGUAAAGAGUU | -0.116

Sample 2 — technique: protein binding microarray; form: double-stranded DNA, one strand shown; sample: in vitro; concentration: not given; reference: not given; direction: higher = stronger binding
Target: Histone acetyltransferase KAT6A, winged helix 2, GST fusion (KAT6A, Homo sapiens, UniProt Q92794, residues 85-181)
Notes: 8-mer, flanks averaged, mean of 2 arrays, mostly near background
Target sequence (chain): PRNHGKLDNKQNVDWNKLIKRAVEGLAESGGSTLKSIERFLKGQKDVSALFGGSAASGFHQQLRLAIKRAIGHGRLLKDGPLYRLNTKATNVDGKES
Strand | E-score
CAAAAGAC | 0.00198
TCATAAAA | 0.0829
GGATTGGA | 0.0488
CGGGTGAG | 0.101
AATACTTA | -0.158
CAAACCGC | 0.146
AGTACATA | -0.0183
CACTCCGG | 0.0516
CATACCGC | -0.0146
CTTGCAGC | 0.106
CAGTCCAC | -0.145
AGTAGCTG | -0.0377
ACGTTCAC | -0.215
CGGGGGAA | 0.171
ATCGATCA | -0.0707
CCTTCGTC | 0.0996
AAGTGATT | -0.00932

Sample 3 — technique: Spec-seq; form: double-stranded DNA, one strand shown; sample: in vitro; concentration: not given; notes: whole probe, mean of replicates; reference: not given; direction: lower = stronger binding; constant ends, left off below: GAGTCGTCTCGTCAGCAC … CCGTAGAGCACTCAGGTC
Target: POU, POU domain (Salpingoeca helianthica)
Construct (chain): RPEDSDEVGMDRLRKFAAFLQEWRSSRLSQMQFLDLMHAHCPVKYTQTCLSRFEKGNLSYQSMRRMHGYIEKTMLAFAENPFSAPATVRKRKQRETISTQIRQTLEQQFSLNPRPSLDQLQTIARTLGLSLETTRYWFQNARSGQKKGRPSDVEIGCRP
Strand | relative binding energy [ln ratio]
ATCGCCAT | 1.11
TACGTAAT | 0.532
ATACAAAT | 1.11
ATGCAAAA | 0.892
ATGCTTAT | 0.927
ATGTGAAT | 1.23
ATGCCCTC | 1.25
ATACTGAT | 1.5
CCTCTAAT | 0.746
ATAAAAAT | 0.761
ATGCTCGT | 1.15
ATGCTCTC | 1.02
ATGCTCTA | 1.04
ATGCCTCG | 0.417
ATGCCTCC | 1.21
ATGCGGAA | 1.37

Sample 4 — technique: universal PBM; form: double-stranded DNA, one strand shown; sample: in vitro; concentration: 600 nM; direction: higher = stronger binding
Target: Sal-like protein 4, full length isoform A (SALL4, Homo sapiens, UniProt Q9UJQ4, residues 1-1053)
UniProt Q9UJQ4, sequence (whole entry, looked up): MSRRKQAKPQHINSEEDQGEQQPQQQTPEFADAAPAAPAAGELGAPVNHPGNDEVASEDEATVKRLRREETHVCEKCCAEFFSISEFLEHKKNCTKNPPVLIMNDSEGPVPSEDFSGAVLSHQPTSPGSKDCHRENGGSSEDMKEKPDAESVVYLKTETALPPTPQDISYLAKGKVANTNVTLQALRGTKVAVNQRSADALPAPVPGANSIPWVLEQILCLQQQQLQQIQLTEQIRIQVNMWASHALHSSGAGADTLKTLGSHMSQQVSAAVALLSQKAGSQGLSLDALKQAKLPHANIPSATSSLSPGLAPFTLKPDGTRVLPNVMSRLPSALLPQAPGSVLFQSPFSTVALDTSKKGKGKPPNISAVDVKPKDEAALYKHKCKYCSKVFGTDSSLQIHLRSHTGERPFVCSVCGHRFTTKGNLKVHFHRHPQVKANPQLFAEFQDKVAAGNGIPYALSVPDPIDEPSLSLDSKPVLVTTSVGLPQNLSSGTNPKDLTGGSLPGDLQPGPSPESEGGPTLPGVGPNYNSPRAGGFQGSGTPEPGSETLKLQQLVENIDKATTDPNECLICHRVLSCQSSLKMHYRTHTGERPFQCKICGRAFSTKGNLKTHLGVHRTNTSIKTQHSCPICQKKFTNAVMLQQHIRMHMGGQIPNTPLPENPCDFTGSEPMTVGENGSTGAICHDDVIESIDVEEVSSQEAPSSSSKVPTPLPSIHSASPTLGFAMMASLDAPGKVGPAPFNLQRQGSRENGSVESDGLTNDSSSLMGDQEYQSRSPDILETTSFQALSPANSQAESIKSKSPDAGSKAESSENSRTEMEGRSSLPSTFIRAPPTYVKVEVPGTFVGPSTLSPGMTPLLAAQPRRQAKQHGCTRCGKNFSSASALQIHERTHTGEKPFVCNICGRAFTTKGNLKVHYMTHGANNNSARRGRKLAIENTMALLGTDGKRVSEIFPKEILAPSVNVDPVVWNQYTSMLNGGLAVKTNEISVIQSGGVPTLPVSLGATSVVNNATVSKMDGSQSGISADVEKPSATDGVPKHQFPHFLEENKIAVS
Notes: 8-mer, flanks averaged, mean of replicates
Strand | E-score
ACTTGTGC | -0.022
GGTCCCAA | -0.215
ATATGAAG | 0.306
CCTGGGGA | -0.352
CGGGAACG | -0.287
AAGATTCG | 0.0863
GAGTGAGA | -0.101
GGTAAACC | -0.116
AGCCGCAG | -0.4
AGGCCCCA | -0.324
AACCGTCG | -0.171
CGTCGGAA | -0.0213
ATCTCAAC | 0.14
CGAAGCAA | 0.157
CTGTGAGA | -0.0467
TCCCTTAA | 0.143
CGCGTGTA | -0.0457
AATAGAGC | 0.104
GTGCACGA | -0.108
ATTGGCAA | 0.225
CGTCCATC | -0.136
ACGGCACA | -0.105

Sample 5 — technique: RNA Bind-n-Seq; form: RNA; sample: in vitro; concentration: 365 nM; reference: no-protein control; direction: higher = stronger binding
Target: RNA binding protein fox-1 homolog 2, RRM domain, GST-SBP tag (RBFOX2, Homo sapiens, UniProt O43251-10, residues 100-194)
Notes: natural RNA segment, single round, ends assumed
Constant ends, left off below: GGGAGUUCUACAGUCCGACGAUC … UGGAAUUCUCGGGUGCCAA
Construct (chain): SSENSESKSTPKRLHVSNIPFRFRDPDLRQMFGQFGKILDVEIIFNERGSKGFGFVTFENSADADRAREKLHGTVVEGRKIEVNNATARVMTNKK
Strand | RBNS enrichment (R)
CCACCCCUGCCUCUGGGCACCCACCACUCACGGAUGGCAGAACCCAUUCAGUCUCCUACCUUGCAUUCAGGAUGCACAGUUCUCUAAGUCCUGGCCAGCCCCAGCUCAUC | 0.775
GCAGGAGGCUGACAUAGUGAUAUUGAGUAGUGAUUAGGAAAGGGGCGGUGUUGAACUGUUUGUGUAGAAAGCCAUCUUUCUGUCUCUUAAGCUCCUCUGGUUUGUCUGGU | 2.14
GCUACCUUUCAUGUCAAAAUGUUGAUCUGUUAUAAAUAAAUGUUUUGCAUACUUGUUUUUGCUGUGUAUUUUGUUUUCACUUUGAAUCACUUUAUCCGUACAAAAAUAAA | 0.617
GAGAACCACCCAAGGGUGUCGAUUAUAACAGAAUGUGGAGAGUGGGUGGCCGUCAUUGGGAAAGCAUCGAGAAAGAGGCGAGCUUUGCAUCUGUCCCUUGACAGGGAAGG | 1.3
GCCGCGUGCACCCUGCCGAGCUGCGUAUAUUCUGUACUGUGUACAAUAAAGAAGAUUGCUUUCCUUAGCAUUCCUGCAACCUGCCUCUUUCUUGCACUCGGUGUUUUCAU | 1.12
AAGAUAGUCCUCAGUGAAAACAGGCUAUCUCCUCCUGGGUCAUCUCAGGUCUCAGGCACCAGUCCAUGGGUGGUGUUCUGUGAACCCCAUCUCUAAUGCCUUUAAAAGGC | 0.207
UGGCCUGAACCUACAACUGCCAAAGAACCCAGCAACAAACCUCCCAGCUUGGAGCUUUAGUUUUUUUCUUUGUUUUUCUUGCUGCCCUCCUCCCUGCCCCCCUUUUCUUA | 0.609
ACAAUCACUUUUUAAAUGACUUUUUGAGCCUUAAAUCCAUAUUCACUUGUGAGAAUCAGGAAAGAAUUCCUCGAGUUGCUUUGCAUCCUCUUGGACCAGGGCUUGCAAGG | 0.541
UGUCAUGUCAUUAACAGAACUGAAAUAUUCUAUUGUAAGACGUGCAUUUGCGGUUAGAAUGGUCUUGUUGCCUAAACUGUCUAAAAUUCUAAUAAAAUAACUUUCUAAGA | 0.582
AAUUCCGUAUGUUCCUUAGACAUUACCCCCACUUAACCUCCCUUCCUCUGAUAUGCCUUGUAGCUAAGAUUUAAAAGACUGUUGAACAUAGAUGAGGGGUAUGCAUUUCU | 1.64
UGUGUGACCUACAAGAUUCCUGGUUGAUACAGUUCAGGUGAGAAACUGUUUGAUUAUAGAAAAGACCCCAGACUCAGAGGGAAGGCUCUCUGGUCUACCUGAGAUCUAUA | 0.402
UCAGGAAGCAAGAGUGUUCAUCACUGUUGUAAUUUCAAAUGCUCCUUGUGAUUUCUGGCAUCUCUGUGGGGUGAGGUGUUCUGUUACUCUUCACAUUCAAAGACUGUCAC | 0.326
